Results of several laboratories.
Protocols differ between the studies behind these lines.
Cell line: NCI-H23

Compound | test | setting | scale | endpoint | value
Cc1n[nH]c2nc(-c3ccc(Cl)cc3)c3c(NC(=O)c4ccccc4)nnc-3n12 | SRB | 10 µM, NCI60 single-dose screen | relative to: untreated | cell growth | 100%
Cc1cc(C)n(C(=S)[S][Au][PH](CCCCCC[PH]([Au][S]C(=S)n2nc(C)cc2C)(c2ccccc2)c2ccccc2)(c2ccccc2)c2ccccc2)n1 | cell growth, NCI-60 screen | non-small cell lung cancer | – | log10 TGI | > -4
O=C(Nc1nnc2n3c(=S)[nH][nH]c3nc(-c3ccc(Cl)cc3)c1-2)c1ccccc1 | SRB | 10 µM, NCI60 single-dose screen | relative to: untreated | cell growth | 88.5%
Cc1cc2c(cc1C)[n+](Cc1ccc3ccccc3c1)cn2Cc1ccc2ccccc2c1.[Br-] | NCI60 five-dose screen | – | – | TGI | 2.28 µM
NNc1nc(-c2ccc(Cl)cc2)c2c(NC(=O)c3ccccc3)nnc-2[nH]1 | SRB | 10 µM, NCI60 single-dose screen | relative to: untreated | cell growth | 100%
CCCCN1CCN(c2ccc3nc(-c4ccc5nc(-c6cc(OC)ccc6OC)[nH]c5c4)[nH]c3c2)CC1 | SRB | 10 µM, 48 h | – | growth percent | 98%
CCCC(CCC)C(=O)OCc1cn(-c2c3ccccc3nc3ccccc23)nn1 | NCI60 single-dose screen | 10 µM | – | growth percentage | 96.4%
CCn1cc(-c2cc(Cn3ccoc3=N)cc3c2CCN([C@@H](C)c2cc(OC)ccn2)C3=O)c(C(F)(F)F)n1 | cell growth, inhibitor | 120 h | – | EC50 | 0.0141 µM
CCCN1CCN(c2ccc3nc(-c4ccc5nc(-c6cc(OC)ccc6OC)[nH]c5c4)[nH]c3c2)CC1 | SRB | 10 µM, 48 h | – | growth percent | 103%
O=C(Nc1nnc2[nH]c(=S)[nH]c(-c3ccc(Cl)cc3)c1-2)c1ccccc1 | SRB | 10 µM, NCI60 single-dose screen | relative to: untreated | cell growth | 96.9%
Cn1cncc1C1=CN(c2ncnc3[nH]cnc23)CCS1 | – | lung cancer | – | TGI | 85.1 µM
CCn1cc(-c2cc(Cn3ccnc3)cc3c2CCN([C@H](c2cc(OC)ccn2)C2CC2)C3=O)c(C(F)(F)F)n1 | cell growth, inhibitor | 120 h | – | EC50 | 11.9 µM
C#C[C@@]1(O)[C@@H](CO)O[C@@H](n2ccc3c(N)ncnc32)[C@@H]1O | SRB | NCI-60 screen | – | TGI | 4.32 µM
CCCCN1CCN(c2ccc3[nH]c(-c4ccc5[nH]c(-c6ccc(OCC)cc6)nc5c4)nc3c2)CC1 | SRB | 10 µM, 48 h | – | growth percent | 64.1%
CCOC(=O)CSc1nc(-c2ccc(Cl)cc2)c2c(NC(=O)c3ccccc3)nnc-2[nH]1 | SRB | 10 µM, NCI60 single-dose screen | relative to: untreated | cell growth | 94.3%
COCCOCCOCc1n(Cc2ccc3ccccc3n2)c2ccccc2[n+]1Cc1ccc2ccccc2c1.[Br-] | NCI60 five-dose screen | – | – | TGI | 10.3 µM
Cc1cc(=O)[nH]c(=O)n1Cc1cn(-c2cc3ccccc3oc2=O)nn1 | NCI60 single-dose screen | 10 µM | – | growth percentage | 94.4%
CCCCN1CCN(c2ccc3[nH]c(-c4ccc5[nH]c(-c6ccc(C(F)(F)F)cc6)nc5c4)nc3c2)CC1 | SRB | 10 µM, 48 h | – | growth percent | -85.1%
COC(=O)/C=C1\C(=O)C=C2C3CC4CC(CCC4(C)N21)C3(C)NC(C)=O (stereo not drawn) | cell growth, NCI screen | – | – | IC50 | 33.1 µM
CCCc1n(Cc2ccc3ccccc3c2)c2ccccc2[n+]1Cc1ccc2ccccc2c1.[Br-] | NCI60 five-dose screen | – | – | TGI | 1.6 µM
CCCCN1CCN(c2ccc3[nH]c(-c4ccc5[nH]c(-c6ccc(OCC)c(OCC)c6)nc5c4)nc3c2)CC1 | SRB | 10 µM, 48 h | – | growth percent | -55.9%
O=C1NC(c2ccccc2)(c2ccccc2)C(=O)N1Cc1cn(-c2c3ccccc3nc3ccccc23)nn1 | NCI60 single-dose screen | 10 µM | – | growth percentage | 85.5%
CN1CCN(c2ccc3[nH]c(-c4ccc5[nH]c(-c6ccc(C(F)(F)F)cc6)nc5c4)nc3c2)CC1 | SRB | 10 µM, 48 h | – | growth percent | 68.2%
CCN(CC)c1ccc(C=NNC(=O)CSc2nc3ccccc3c(=O)n2Cc2ccc(S(N)(=O)=O)cc2)c(O)c1 | NCI five-dose screen | – | – | TGI | > 100 µM

For quick reference, copied from above:
Compound | test | setting | scale | endpoint | value
NNc1nc(-c2ccc(Cl)cc2)c2c(NC(=O)c3ccccc3)nnc-2[nH]1 | SRB | 10 µM, NCI60 single-dose screen | relative to: untreated | cell growth | 100%
CCCc1n(Cc2ccc3ccccc3c2)c2ccccc2[n+]1Cc1ccc2ccccc2c1.[Br-] | NCI60 five-dose screen | – | – | TGI | 1.6 µM
C#C[C@@]1(O)[C@@H](CO)O[C@@H](n2ccc3c(N)ncnc32)[C@@H]1O | SRB | NCI-60 screen | – | TGI | 4.32 µM
